Assay results gathered from unrelated publications.
A part holds a random share of what one study measured.

Series 1
Target: Interferon regulatory factor 5, full length, phosphomimetic (IRF5, Homo sapiens, UniProt Q13568-2, residues 1-514, K96S/S451D/S453D/S456D/S462D)
Method: protein-binding microarray
Molecule type: double-stranded DNA, one strand shown
Sample: in vitro
Tested at: 250 nM
Setting: 60-bp whole probe
With: salmon DNA 0.4 mg/ml
Relative to: random background probes
Reading: higher = stronger binding
Shared flanks, not repeated: GCCTAGCAC … GTCTTGATTCGCTTGACGCTGCTG
| Sequence | log fluorescence |
| --- | --- |
| AAACCTATAGGGCCTGACTTCGTGCTA | -0.33 z-score |
| TCACATTTTTCCCTCTGACTGTGCTAG | 1.03 z-score |
| GACGGTTTCCTACTGCTGAAGTGCTAG | 0.362 z-score |
| GACGGTTTCCTTTTCCCGACGTGCTAG | 0.999 z-score |
| GACGATTTCGGGTTTGGAGACGTGCTA | 3.17 z-score |
| TGCACTCTCTACATGTGTTTGTGCTAG | 0.318 z-score |
| TAAGATTTCAGTTTCGATTAGTGCTAG | 10 z-score |
| ACCACTCTTCCTTTACTTTCGTGCTAG | 3.57 z-score |

Series 2
Target: Replicase polyprotein 1ab, polymerase (rep, Severe acute respiratory syndrome coronavirus 2, UniProt P0DTD1)
Read-out: enzyme activity
Mode: inhibitor
Tested at: 20 µM
| SMILES | inhibition |
| --- | --- |
| CCN(CC)Cc1nccn1-c1ccc([N+](=O)[O-])cc1C(=O)c1ccccc1Cl | 2.42% |
| CCCN1CCCC[C@H]1C(=O)Nc1c(C)cccc1C | -4.09% |
| O=C1NC(=O)c2c1c1c3ccccc3n3c1c1c2c2ccccc2n1[C@H]1CC[C@@H]3O1 | 0.87% |
| NCC(O)(CS(=O)(=O)O)c1ccc(Cl)cc1 (centres unmarked) | -5.98% |
| Cc1sc(C)c(C(=O)NC2(c3ccc(C(=O)O)cc3)CC2)c1Cc1ccc(C(F)(F)F)cc1 | -10.6% |
| CN1CCCC(CC2c3ccccc3Sc3ccccc32)C1 (centres unmarked) | -5.61% |
| COc1ccc2[nH]c([S+]([O-])Cc3ncc(C)c(OC)c3C)nc2n1 (centres unmarked) | 43.8% |
| COc1ccc(C(=O)/C(Br)=C\C(=O)O)cc1 | 3.14% |
| O=C(Nc1cccc(Cl)c1)c1ccccn1 | -2.42% |
| CC(=O)S[C@@H]1CC2=CC(=O)CC[C@]2(C)[C@H]2CC[C@@]3(C)[C@@H](CC[C@@]34CCC(=O)O4)[C@H]12 | 24.7% |
| COc1cccc([C@@]2(O)CCCC[C@@H]2CN(C)C)c1 | -2.47% |
| C=CCc1cccc(/C=N/NC(=O)CN2CCN(Cc3ccccc3)CC2)c1O | -2.24% |
| COCc1nnc(N2CC(Oc3ccc(F)cc3Cl)C2)n1-c1ccc(OC)nc1 | -4.29% |
| COC1CCN(c2cccc(-c3cc(NC(C)=O)nc(-n4nc(C)cc4C)n3)n2)CC1 | 11.1% |
| O=C(O)c1cc2cc(Cc3cccnc3)ccc2o1 | 5.24% |
| CC(C)(Cc1c[nH]c2ccc(Cl)cc12)NCCOc1ccccc1OCC1CC1 | 1.1% |
| Cc1ccc(NC(=O)c2cccc(N(C)C)c2)cc1NC(=O)c1ccc(O)cc1 | 3.37% |
| CN1C(=O)N(c2cc(Cl)cc(Cl)c2)C(=O)[C@@]1(C)Cc1ccc(Br)cc1 | 3.79% |
| Cn1c(COP(=O)(NCCBr)NCCBr)cnc1[N+](=O)[O-] | -7.49% |
| CN1CC[C@@H](NC(=O)Nc2ccc(C#N)cc2)C[C@@H]1c1nc2ccccc2[nH]1 | 1.14% |
| CC(=C(CCOC(=O)C(C)C)SSC(CCOC(=O)C(C)C)=C(C)N(C=O)Cc1cnc(C)nc1N)N(C=O)Cc1cnc(C)nc1N (stereo in doubt) | -2.45% |
| C=CC(=O)Nc1cccc(Oc2nc(Nc3ccc(N4CCN(C)CC4)cc3)nc3ccsc23)c1 | 9.86% |
| CC1=C[C@H](O)CC(C)(C)[C@H]1/C=C/C(C)=C/C=C/C(C)=C/C=C/C=C(C)/C=C/C=C(C)/C=C/C1=C(C)C[C@@H](O)CC1(C)C | 0.4% |
| Cc1ccc(S(=O)(=O)N2CCC[C@H]2c2ccc(F)cc2)cc1 | -6.06% |
| O=C(CCc1ccc(O)cc1)c1c(O)cc(O)cc1O[C@@H]1O[C@H](CO)[C@@H](O)[C@H](O)[C@H]1O | -1.4% |

Series 3
Cell line: HEK-293T
Read-out: pseudovirus infection
Method: FDA-approved drug library screen
Organism: VSV pseudotyped with SARS-CoV-2 spike
Tested at: 10 µM
Time: 16 h
Relative to: vehicle-treated
| Structure (SMILES) | GFP-positive cells [%] |
| --- | --- |
| CCn1cc(C(=O)O)c(=O)c2ccc(C)nc21 | 109 |
| CCc1ccc(CCOc2ccc(CC3SC(=O)NC3=O)cc2)nc1 (centres unmarked) | 91.3 |
| O=c1[nH]c(=O)n([C@H]2C[C@H](O)[C@@H](CO)O2)cc1F | 88.3 |

Series 4
Target: Histone acetyltransferase KAT6A, winged helix 1, GST fusion (KAT6A, Homo sapiens, UniProt Q92794, residues 1-85)
Method: protein binding microarray
Molecule type: double-stranded DNA, one strand shown
Sample: in vitro
Tested at: not given
Setting: 8-mer, flanks averaged, mean of 2 arrays, mostly near background
Relative to: not given
Reading: higher = stronger binding
Residues (chain): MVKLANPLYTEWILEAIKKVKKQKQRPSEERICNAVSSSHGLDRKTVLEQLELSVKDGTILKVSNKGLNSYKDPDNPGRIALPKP
| Sequence | E-score |
| --- | --- |
| CCCATTCG | -0.0787 |
| CCGCGATC | 0.352 |
| AAAAGATT | -0.148 |
| CTATCTCA | -0.192 |
| GATGAAGA | -0.0776 |
| ACTACGAA | -0.259 |
| AACCCAGT | -0.126 |
| GGCCAGAC | -0.115 |

Series 5
Target: RNA binding protein fox-1 homolog 2, RRM domain, GST-SBP tag (RBFOX2, Homo sapiens, UniProt O43251-10, residues 100-194)
Method: RNA Bind-n-Seq
Molecule type: RNA
Sample: in vitro
Tested at: 365 nM
Setting: natural RNA segment, single round, ends assumed
Relative to: no-protein control
Reading: higher = stronger binding
Construct (chain): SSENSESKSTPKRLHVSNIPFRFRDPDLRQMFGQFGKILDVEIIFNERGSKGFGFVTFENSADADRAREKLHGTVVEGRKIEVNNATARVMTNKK
| Sequence | RBNS enrichment (R) |
| --- | --- |
| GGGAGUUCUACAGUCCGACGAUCUCUGUGGCUGUGGUCUGUCCUGGGAACAGACGUGGUAAAAUGCGUUUCCUAUCUCUAAAAUAUCUACUUCUGUGAAGAAGACUGGCUUACUCAGGCCAGGGCCCUCCUGAUGGAAUUCUCGGGUGCCAA | 0.279 |
| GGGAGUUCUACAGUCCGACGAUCCUGGUUAUUUCUUGUCUUCCAUCUUAGAAGAAUUGUGUUUCUUCAGGAUACUCUUGUACCUGUGGUUCAUGCUUGAAAUGUUAAAGAUUCCUUAAUCCAACUUAUACCGGUGGAAUUCUCGGGUGCCAA | 0.318 |
| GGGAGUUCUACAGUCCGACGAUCCCACCUGCUGCCAGGCCUCACCAAAGCCAACUGUCACAGGGCCACCUGGGCCACUCAGAGACCUCAGUGGGACUGGGAGAGUGGAGGGAACUACAUCAGCGCCCACACUGUGGAAUUCUCGGGUGCCAA | 0.383 |
| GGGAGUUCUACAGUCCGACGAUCGAAAUGAAAAUAUCCUUUUUUAAAAUAUGUGGAAGUAAUUUGGGUAUAAUUAGUUUUUUUCUACCUUUUGGAAAGUUGUUUUUUUGUUGUUUUUUUUUUUUUCCCAGAUGUGGAAUUCUCGGGUGCCAA | 1.88 |
| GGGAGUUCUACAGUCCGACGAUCUUAACACAUUUGCAAGAUGAUUGACUCAAUCUUUGCCUAAUCCAAUGAGUGUUACAGAGAGCUUGCUGUGACUAGAACCAUAAAUCUUAAAGGGGGUAUGUGAUAAUAGAUGGAAUUCUCGGGUGCCAA | 0.641 |
| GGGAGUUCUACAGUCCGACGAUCUGUCUGCACUGAUUCAAAGAGGAUUUGUGGGAAAGAAAACUAAAGGCAUGGGUUUCGUCCAAAAAUCAUGAAUUUUUCUAAUUCUACUAUUUUACAACUUGCUGAGACACUGGAAUUCUCGGGUGCCAA | 0.626 |
| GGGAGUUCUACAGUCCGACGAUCGUUGGAUCACAGAAUGUGUGUCUGGGGCAUUAUCUGAAACGUGGUGUCAUCUGAUGCAUUUGGACCAUAUGCUGCCAGACUGCAGAACGGGGGAGCCGGGGCUCAGGGCCUGGAAUUCUCGGGUGCCAA | 0.328 |
| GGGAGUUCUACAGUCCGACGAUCCCCUGCCUGGACAUUGCAUUUCCCCAUUUAUGGUGCUCCGUAUUCUGGCAUUAUGCAGCAGCCUCACACACCUGUCCUCUCCUUCUUCAUGUCCUACAGUUCUGCUAUCAUGGAAUUCUCGGGUGCCAA | 0.8 |

Series 6
Target: Replicase polyprotein 1ab, main protease (rep, Severe acute respiratory syndrome coronavirus 2, UniProt P0DTD1)
Read-out: enzyme activity
Mode: inhibitor
Tested at: 20 µM
| SMILES | inhibition |
| --- | --- |
| O=C(O)/C(S)=C/c1ccc(I)cc1 | -14.6% |
| COc1ccc2[nH]c(S)nc2c1 | 15.9% |
| CC(=O)[O][Hg][c]1ccccc1 | 100% |
| COc1nc2ccc(Br)cc2cc1[C@@H](c1ccccc1)[C@@](O)(CCN(C)C)c1cccc2ccccc12 | -19.8% |

Repeated from above (series 2):
| SMILES | inhibition |
| --- | --- |
| C=CCc1cccc(/C=N/NC(=O)CN2CCN(Cc3ccccc3)CC2)c1O | -2.24% |
| O=C(Nc1cccc(Cl)c1)c1ccccn1 | -2.42% |
| C=CC(=O)Nc1cccc(Oc2nc(Nc3ccc(N4CCN(C)CC4)cc3)nc3ccsc23)c1 | 9.86% |
| COCc1nnc(N2CC(Oc3ccc(F)cc3Cl)C2)n1-c1ccc(OC)nc1 | -4.29% |
| COc1cccc([C@@]2(O)CCCC[C@@H]2CN(C)C)c1 | -2.47% |
| Cc1ccc(NC(=O)c2cccc(N(C)C)c2)cc1NC(=O)c1ccc(O)cc1 | 3.37% |
